Measured values pooled from the literature.
Numbered parts are unrelated; each lists some results of a single study. Positions count from the first letter of the parent shown.

Sample 1 — technique: protein-binding microarray; form: double-stranded DNA, one strand shown; matrix: in vitro; tested at: 2200 nM top; setting: 60-bp whole probe; added: salmon DNA 0.4 mg/ml; reference: random background probes; reading: higher = stronger binding; quantity: fitted relative affinity; shared flanks, not repeated: GCCTAGCAC … GTCTTGATTCGCTTGACGCTGCTG
Target: Interferon regulatory factor 7, full length, phosphomimetic (IRF7, Homo sapiens, UniProt Q92985, residues 1-503, S471D/S472D/S475D/S476D/S477D/S483D/S484D/S487D)
Target sequence (chain): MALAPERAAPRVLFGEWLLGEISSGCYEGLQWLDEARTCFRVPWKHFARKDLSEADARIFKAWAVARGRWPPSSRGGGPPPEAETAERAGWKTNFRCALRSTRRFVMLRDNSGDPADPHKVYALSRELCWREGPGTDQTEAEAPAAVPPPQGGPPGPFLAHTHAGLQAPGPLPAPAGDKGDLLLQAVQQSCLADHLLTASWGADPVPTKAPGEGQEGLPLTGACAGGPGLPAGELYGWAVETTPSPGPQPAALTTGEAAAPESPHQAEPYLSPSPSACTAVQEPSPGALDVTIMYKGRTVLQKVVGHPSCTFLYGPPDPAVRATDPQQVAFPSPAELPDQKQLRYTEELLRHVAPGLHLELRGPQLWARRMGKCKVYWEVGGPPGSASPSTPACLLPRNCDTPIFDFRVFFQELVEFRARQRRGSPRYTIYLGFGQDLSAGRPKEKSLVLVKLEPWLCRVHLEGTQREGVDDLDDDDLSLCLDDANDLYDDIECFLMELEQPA
TTAGAACTGGGGTTTTGATTAGTGCTA: 0.287 z-score
GACGATCTCAGTATAGAGACGTGCTAG: -0.053 z-score
GACGGACTGGGGCTTCGGGACGTGCTA: -0.668 z-score
AAGACTTTGGTTTGTACACCGTGCTAG: 0.436 z-score
TTAGGTTTCGGTCTCGGTCAGTGCTAG: 6.37 z-score
CCTTTTTTGTTGTTTTTTGGGTGCTAG: 2.79 z-score
TTAGGCCTGGGGACTGGGTTAGTGCTA: -1.19 z-score
TCATTTACAGGTTCTCTTACTGTGCTA: 1.74 z-score
GATGGCAGTGGAAATTTTACGTGCTAG: -0.296 z-score
GACGGTTTCGGTTTCTGGACGTGCTAG: 13.7 z-score
TCATTTTTTTTTTCTACACTGTGCTAG: 2.61 z-score
GACGGTATAGGTCTCGGGACGTGCTAG: -0.287 z-score
GACGGTTTCCTTTCCCTGAAGTGCTAG: 4.39 z-score
TCAATTTTCTAAATGCCACTGTGCTAG: 2.26 z-score
TTAGATCTCAGTTTCGATTAGTGCTAG: 5.42 z-score
GACGGTTTCAGGTTTCGGGACGTGCTA: 5.13 z-score
GACGGAGTGGGACTGGGGACGTGCTAG: -0.822 z-score

Sample 2 — technique: protein binding microarray; form: double-stranded DNA, one strand shown; matrix: in vitro; tested at: not given; reference: not given; reading: higher = stronger binding; quantity: E-score
Target: Histone acetyltransferase KAT6A, winged helix 1, GST fusion (KAT6A, Homo sapiens, UniProt Q92794, residues 1-85)
Setting: 8-mer, flanks averaged, mean of 2 arrays, mostly near background
Construct (chain): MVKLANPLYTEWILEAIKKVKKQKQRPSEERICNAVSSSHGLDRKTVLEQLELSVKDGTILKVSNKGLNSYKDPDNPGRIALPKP
ACCTATGA: -0.138
GATGCACA: -0.0853
AAATTTAG: -0.14
AAGTCGGC: 0.167
GCCTACAC: -0.057
CCGGAATC: 0.166
AACTCTCA: -0.0639
CGCAGCCC: 0.13
CGGAATAG: 0.177
ATAACCCG: 0.239
CAGTTTCC: -0.02
CGTTCGGC: 0.206
CACGTTCC: -0.124
TCGAAAGA: -0.199
CAAAAGGA: -0.175
ATTATCAC: 0.0532
CAATGTCG: 0.00612
CCTGGAAC: -0.313
ATTTGGGC: -0.287
AGCCTATG: -0.243
ACGAGCAT: -0.282
GGTTGAGA: -0.0591
AGGACGGA: 0.0877
CAGAGCAG: -0.185
AAGCCAAT: -0.123

Sample 3 — technique: universal PBM; form: double-stranded DNA, one strand shown; matrix: in vitro; tested at: 600 nM; reading: higher = stronger binding; quantity: E-score
Target: Sal-like protein 4, full length isoform A (SALL4, Homo sapiens, UniProt Q9UJQ4, residues 1-1053)
Sequence of UniProt Q9UJQ4 (whole entry, looked up): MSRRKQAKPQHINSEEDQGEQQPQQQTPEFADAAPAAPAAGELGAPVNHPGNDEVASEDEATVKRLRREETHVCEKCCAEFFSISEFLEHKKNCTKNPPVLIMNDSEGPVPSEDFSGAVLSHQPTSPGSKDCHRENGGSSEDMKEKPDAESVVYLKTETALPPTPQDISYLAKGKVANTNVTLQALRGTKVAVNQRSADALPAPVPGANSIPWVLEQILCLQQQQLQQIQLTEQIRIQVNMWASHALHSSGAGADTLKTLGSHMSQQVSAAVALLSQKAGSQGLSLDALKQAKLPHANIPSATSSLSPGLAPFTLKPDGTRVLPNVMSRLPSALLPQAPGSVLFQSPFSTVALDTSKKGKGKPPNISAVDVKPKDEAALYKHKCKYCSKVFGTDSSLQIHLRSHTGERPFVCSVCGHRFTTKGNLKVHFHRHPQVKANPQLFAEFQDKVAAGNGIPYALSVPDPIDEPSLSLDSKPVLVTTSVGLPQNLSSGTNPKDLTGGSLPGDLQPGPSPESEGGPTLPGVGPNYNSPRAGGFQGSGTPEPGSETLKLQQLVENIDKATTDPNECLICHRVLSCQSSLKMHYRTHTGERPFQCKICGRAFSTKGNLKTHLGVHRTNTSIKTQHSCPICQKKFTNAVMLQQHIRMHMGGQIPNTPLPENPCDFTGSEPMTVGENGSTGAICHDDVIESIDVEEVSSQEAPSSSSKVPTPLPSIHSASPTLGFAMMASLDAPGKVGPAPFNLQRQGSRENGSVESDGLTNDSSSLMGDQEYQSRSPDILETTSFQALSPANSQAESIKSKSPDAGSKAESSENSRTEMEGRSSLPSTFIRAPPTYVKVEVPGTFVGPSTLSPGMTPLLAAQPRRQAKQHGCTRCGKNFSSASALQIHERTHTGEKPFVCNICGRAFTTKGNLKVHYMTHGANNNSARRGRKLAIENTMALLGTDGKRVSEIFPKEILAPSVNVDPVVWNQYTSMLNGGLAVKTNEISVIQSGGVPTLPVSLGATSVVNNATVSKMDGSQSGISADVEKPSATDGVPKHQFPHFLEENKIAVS
Setting: 8-mer, flanks averaged, mean of replicates
CACCCACA: -0.091
CAATTGTC: 0.0871
ACCAGAGC: -0.137
GAGGGGGA: -0.252
ATTCGAAA: 0.208
CTGGATCA: -0.0328
ATGTGTGC: 0.0235
ACTATGGC: -0.0144
AAATCCGT: 0.123
AGGTAGTG: -0.0644
ATGGACTC: -0.0465
ATTGAGTA: 0.311
CAAACATG: 0.19
CCCCTACA: -0.135
GACCAGCA: -0.242
CTCGATGC: -0.128

Sample 4 — target: CEP164, C-terminal peptide (human); technique: DHFR complementation, deep sequencing; matrix: yeast; reference: wild type; reading: higher = weaker binding; quantity: binding free energy change
Setting: single substitutions, model-inferred values
Parent: PDZK1, PDZ domain 2 (human); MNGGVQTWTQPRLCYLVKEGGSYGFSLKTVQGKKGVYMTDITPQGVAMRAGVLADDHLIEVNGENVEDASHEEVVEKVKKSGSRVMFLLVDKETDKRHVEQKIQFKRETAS; partner HNRVKVYRF
E108D: -0.0883 kcal/mol
L58W: 0.955 kcal/mol
G82F: 0.613 kcal/mol
I41R: 1.15 kcal/mol
S22L: -0.122 kcal/mol
N62Y: 0.909 kcal/mol
Q44F: 0.0269 kcal/mol
D56G: 0.354 kcal/mol
E73W: -0.0193 kcal/mol
Y23R: 1.35 kcal/mol
A69F: -0.343 kcal/mol
Q10F: 0.384 kcal/mol
K92E: -0.034 kcal/mol
T9G: -0.0919 kcal/mol
S111F: 0.951 kcal/mol
L58C: -0.00861 kcal/mol
G21C: 0.291 kcal/mol
G45Q: 0.823 kcal/mol
L89Y: 1.46 kcal/mol
Q6T: 0.00677 kcal/mol
D40V: 0.666 kcal/mol
L27C: 0.914 kcal/mol

Sample 5 — technique: RNA Bind-n-Seq; form: RNA; matrix: in vitro; tested at: 365 nM; reference: no-protein control; reading: higher = stronger binding; quantity: RBNS enrichment (R)
Target: RNA binding protein fox-1 homolog 2, RRM domain, GST-SBP tag (RBFOX2, Homo sapiens, UniProt O43251-10, residues 100-194)
Setting: natural RNA segment, single round, ends assumed
Shared flanks, not repeated: GGGAGUUCUACAGUCCGACGAUC … UGGAAUUCUCGGGUGCCAA
Target sequence (chain): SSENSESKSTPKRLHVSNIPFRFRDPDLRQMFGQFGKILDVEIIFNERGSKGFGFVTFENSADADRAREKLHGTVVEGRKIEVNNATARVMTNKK
UCUGUCCUGAAAGCUUUGCCUCUUUCUUGGCAAAGUUUCUGGUAUGGUCAAGCUUGUAAAUAACUUUUUUUACAUUUUAAUCUUUUCCAUUAAUUAAGAGGUUGAAAAGA: 0.317
GACCUUAAAGUUAUUGAGUUUAAGCUACAAAUUGUAACGUCAUUACUGGACAUGUCAGCAUCAACCCUCUCAAAAUAGCUUGGUCACUUUAUGAAGGGGCGUUUUAAAGU: 0.431
UGGCUGGCAGAAGAAAUAAGCCCAUGCAAGUGGAAGGGCUGCUUUGUCAGGAGGUUGUGGAAUUUCUUUCUUCUCCCCUUCUUCCCUCCCAAAAGCUUAGCUAUGUAUAA: 2.14
AUGCAAUAAGUUCCUAGGUAGUCUACCCUUACCUUGAGGAAUGGGAAAAUGAACCUCAGCCCAUUAGGCAGGAAAAGUUGAUAUUUAAUAAACAAGGAAAGAGUGAACUG: 0.421
GCUGCCCUCUGCCACCCUGUGGCUGCCCUGGCUCUCUGGUCUCUAUCACCCACACAGCACCAUCUCCCCGGCUUGGCUUGGUUAGAAUGGUGAGGGGUUUACAGGGUAAG: 0.284
GUGAGCCCCGUAGUGAUGGCCUCUGCCUUGUGCUUGGCCUUCCCCAUUGCCUGCACCUGAAACAGCCACCCACAUACACACUCUGGUAGGUCAGGGGGUCCCCGACAAUC: 0.436
AUCAAAGGACAUUUUUACUUUCUUGGAUUUAGAGCCAACAACUAGGAACGUACUUAUGUAGGACAGAGGUUAGCAACCUGUGGGUCAUGACCCCUUUGGGGAUCAAACUA: 0.291
CAGUGAUCUGUAUUCUUAGUUUCAUUAUUUUCUUUUGAUUGAUAUGACACUAUAUAAAAUUUUCAUUUGAGAAUUUCUCAAUUGUAUCUAGUUAAAUAGCACAGUUUGGA: 0.705
ACAUAGGCUGAACAUUUUCCUAAAUUCUACCUGUGCAGACACUGAGGGGCUCUCUACCUUUGAAACUAUGAGAACGUCUUAAAUUAAUAUGAAUAUUUCUCUCCAUGUAU: 0.498
GACUCCAGCGACUGCACACCCGCUCUGUGCUGCGGCCAGGGAGGGUGAGAACCAUCGCUCCUUUGCCAGGUAACUCUUGGGAGCCUCUCCCCCUUCUGCAUAGAGGAAAU: 0.248
CAUCUGAGCCAGGCCUAAUCCUCUAAUAGUGAUGGUUGGUUUGUCCUCCCAUAACUGCAGGUGGAUUCCACCUGGGGAAUGAGGCUGCGUGUCGGGCGUCUGCUGGCCCU: 0.259
CUAAGAACCAGCUUCCCAGUGGGGCUCCCUACUUUGUGUGCACCUUGGGCAGUGCCUCUGGGCACUAAUGUUCAUUAGUCCAAGUUUUUGAAGAUCUGCACACAGUAAGU: 0.416

Sample 6 — technique: RNA Bind-n-Seq; form: RNA; matrix: in vitro; tested at: 200 nM; setting: whole 134-nt RNA, ends assumed; added: 150 mM KCl; reference: input library; reading: higher = stronger binding; quantity: log2 enrichment
Target: Fragile X messenger ribonucleoprotein 1, C-terminal low-complexity region (Fmr1, Mus musculus, UniProt P35922)
Shared flanks, not repeated: GGGAGUUCUACAGUCCGACGAUC … UGGAAUUCUCGGGUGUCAAGG
UCAAGUCCUGUGCUACACAUCGUAUGUACCGAAUCGGGAAAGGGAAAGGAAAGGGAAAGUAUUAUGUUACGCCGUUCGGAUCUGCACUUC: -0.496
CAAGUCCUGUGCUACACAUCGUAUGUACCGAAUCGGCCCCGGGGCCCCGGCCCCGGAAAGUAUUAUGUUACGCCGUUCGGAUCUGCACUU: -0.799
UGGCCCUGGUGGCAUGCGGGGAGGAAGAGGGGGCCUCAUGGAUCGUGGUGGUCCCGGUGGAAUGUUCAGAGGUGGCCGUGGUGGAGACAG: 0.374
UUAUUGAACUGACAAGGUCCUCCCUGUGUUGUAGCAAGGACCAGACUGGCUUGAGCUCUCUGAGAUGACCGAGCAGCCAGACUAUGACCU: 0.588
UCCUGUGCUACACAUCGUAUGUACCGAAUCGGCCCCCCGGCCCCCCGGGGCCCCCCGGGGAAAGUAUUAUGUUACGCCGUUCGGAUCUGC: -0.302
CAAGUCCUGUGCUACACAUCGUAUGUACCGAAUCGGGCCCGGGCCCGGCCCGGGGAAAGUAUUAUGUUACGCCGUUCGGAUCUGCACUUC: -0.726
AGGACGUGCAGAACUUCCUCUCUGACUGCACGAUUCAUGAUGGGGCCGCAGGUGUCCAUUUCAUCUACACUAGAGAGGGCAGGCAGAGUG: 0.572
CAAGUCCUGUGCUACACAUCGUAUGUACCGAAUCGGGGUUUGGUUUGGGGUUUGGAAAGUAUUAUGUUACGCCGUUCGGAUCUGCACUUC: -0.0964
GUCCUGUGCUACACAUCGUAUGUACCGAAUCGGAAAAAAAGGUUUUUGGAAAAAAAGGAAAGUAUUAUGUUACGCCGUUCGGAUCUGCAC: -1.08
UGGGAGGUGGAUUUUGUUUAUUUUUUUAGCUCAUUUCCAGGGGUGGAAAUUUUUUUUUAAUAUGUGUCAUGAAUAAAGUUGUUUUUGAAA: 0.27
CCUGUGCUACACAUCGUAUGUACCGAAUCGGGCCCCCCCGGCCCCCCCGGGCCCCCCCGGAAAGUAUUAUGUUACGCCGUUCGGAUCUGC: -0.0046
CUCAAGUCCUGUGCUACACAUCGUAUGUACCGAAUCGGGUGGGUGGGUUUGGGAAAGUAUUAUGUUACGCCGUUCGGAUCUGCACUUCCA: 1
UCCUGUGCUACACAUCGUAUGUACCGAAUCGGCCCCCCGGGGCCCCCCGGGCCCCCCGGGAAAGUAUUAUGUUACGCCGUUCGGAUCUGC: -0.677
AAGUCCUGUGCUACACAUCGUAUGUACCGAAUCGGGGAAAAAGGGGUGGGGAGGGGAAAGUAUUAUGUUACGCCGUUCGGAUCUGCACUU: 0.955

For quick reference, copied from above (sample 2):
CCGGAATC: 0.166
AACTCTCA: -0.0639
CGCAGCCC: 0.13
CGGAATAG: 0.177
ATAACCCG: 0.239
CAGTTTCC: -0.02
CGTTCGGC: 0.206
